# Results collected from several papers.
# Each numbered part is a random draw from the data of one study; scales do not carry over between parts. Positions count from the first letter of the parent shown.

# Series 1
# Target: Histone acetyltransferase KAT6A, both winged helices, GST fusion (KAT6A, Homo sapiens, UniProt Q92794, residues 1-181)
# Technique: protein binding microarray
# Form: double-stranded DNA, one strand shown
# Sample: in vitro
# Tested at: not given
# Setting: 8-mer, flanks averaged, mean of 2 arrays, mostly near background
# Reference: not given
# Reading: higher = stronger binding
# Construct (chain): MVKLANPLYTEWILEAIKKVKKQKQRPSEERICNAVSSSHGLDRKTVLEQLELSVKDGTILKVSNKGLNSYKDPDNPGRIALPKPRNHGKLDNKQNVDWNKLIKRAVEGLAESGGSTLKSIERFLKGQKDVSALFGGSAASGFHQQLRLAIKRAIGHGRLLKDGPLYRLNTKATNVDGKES
Oligonucleotide,E-score
CGTCTGAG,-0.0195
CGAAAGAA,-0.111
GTAGGGAA,-0.0697
GTCCCTAA,-0.096
AGTTTATC,-0.063
AGGCTCTG,-0.222
CAATTTAG,-0.245
TATTTGAA,-0.0176
ATCGGCCC,0.223
GCTTACAC,0.0437
TTAACGAA,0.0714
GAAGAAAA,-0.138
AACTGCGT,0.16
CGCGCCCA,0.222
CCAGTCTA,-0.139
ACGGAGTC,0.105
AGTTCTCA,-0.189
CCTTTAGA,-0.101
CAGACGGC,0.231
CAACCTTC,-0.163
GACTCTGC,-0.117
CTACATGA,-0.0118
CTCGTGTA,-0.0773
CCAACCGA,-0.0869
GCGAGAGC,0.129

# Series 2
# Target: ABI1, truncated, D143A, DHFR fusion (Arabidopsis thaliana)
# Technique: DHFR PCA, deep sequencing
# Sample: yeast
# Setting: methotrexate growth selection, single substitutions
# Together with: (+)-ABA 0.032 µM
# Reference: wild-type fitted maximum
# Reading: higher = stronger binding
# Parent: PYL1, truncated, DHFR fusion (Arabidopsis thaliana); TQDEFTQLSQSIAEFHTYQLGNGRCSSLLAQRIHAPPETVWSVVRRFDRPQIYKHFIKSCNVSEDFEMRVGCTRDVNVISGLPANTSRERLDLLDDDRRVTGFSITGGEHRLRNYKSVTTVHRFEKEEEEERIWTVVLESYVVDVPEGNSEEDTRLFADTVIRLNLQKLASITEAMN
Variant,relative binding score
V137S,-3.2%
E67Q,30.1%
L28C,16.6%
C72H,-6.28%
N177D,21.1%
E174Q,0.779%
F157P,6.58%
L169A,-1.02%
T17M,7.14%
S59C,4.62%
L91G,0.0683%
S42E,31.6%
E130M,12.9%
V62F,-4.14%
I162P,-2.19%
S171T,36.6%
V121W,-3.63%
H55G,4.21%
N177V,37.4%
L28M,20.5%
D153F,-14.9%
A175G,25.2%
S171N,22.7%
G107K,4.57%

# Series 3
# Target: RNA binding protein fox-1 homolog 2, RRM domain, GST-SBP tag (RBFOX2, Homo sapiens, UniProt O43251-10, residues 100-194)
# Technique: RNA Bind-n-Seq
# Form: RNA
# Sample: in vitro
# Tested at: 365 nM
# Setting: natural RNA segment, single round, ends assumed
# Reference: no-protein control
# Reading: higher = stronger binding
# Residues (chain): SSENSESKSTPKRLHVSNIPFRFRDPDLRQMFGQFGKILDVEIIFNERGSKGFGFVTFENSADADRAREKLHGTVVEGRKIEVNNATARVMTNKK
Oligonucleotide,RBNS enrichment (R)
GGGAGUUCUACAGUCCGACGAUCCGUUUUGUUUUGUUUUGUUUUUAAACACCUGCUUACCCCUUAAAUGCAAUUUAUUUACUUUUACCACUGUCACAGAAACAUCCACAAGAUACCAGCUAGGUCAGGGGGUGUGGAAUUCUCGGGUGCCAA,0.585
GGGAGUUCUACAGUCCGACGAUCUCAUCAUUUACAUUGAAGAAGCUCACGCCACAGAUGGCUGGGCUUUUAAGAACAACGUGGACAUCCGGCAGCACCGGAGCCUCCAGGAGCGCGUGCGGGCAGCCCGCAUGUGGAAUUCUCGGGUGCCAA,1.12
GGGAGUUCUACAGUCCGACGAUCACCAAAUAUGAACUUGUGAGUUGUGUCAAUGCAGAGAACCGGGGUUUUGUGUUAAUAGAGUAUUGUUUUAGCAUGUGAUCAGAUCUUAAGAAAGAAAGAAAGAAAGACAGUGGAAUUCUCGGGUGCCAA,16.6
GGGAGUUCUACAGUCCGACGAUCGGGAAAAGAUUCCCACCCAAUUCAAAACAUUGUGCCAUGUCAAACAAAUAGUCUAUCAACCCCAGACACUGGUUUGAAGAAUGUUAAGACUUGACAGUGGAACUACAUUAUGGAAUUCUCGGGUGCCAA,0.354
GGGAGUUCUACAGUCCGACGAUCUUGAGGGACGCACUGUGAAGAAUGAGAAGGGAAAAGCAAGAUUAUCCUUGUGAAAUUCUGCUGAUUGUGCCCUACCCUUUGCACCUGACUUUUCCUAGUUGUCCUGGUGCUGGAAUUCUCGGGUGCCAA,1.12
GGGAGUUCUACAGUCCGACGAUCUAUUGGACAAGGGCUUGCUUCAAGCAUCUGUAUUAGUCUGUAUUAAUGCUGCUGAUAAAGACGUACCCGAGACUGGGAAGAAAAAGAGGUUUACUUGGACUUACAGUUCCUGGAAUUCUCGGGUGCCAA,0.326
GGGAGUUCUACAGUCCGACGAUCUCUCAACUUUGCCCGCUCACCAUGUCCCUUGCCCCCAUGUAGCCCAUUUCCCAGGUUAUGCUCUUUUCUUUCUCAGGGUCCUCUUUGGUGGGCAGCCACUCCCCGAGAUGUGGAAUUCUCGGGUGCCAA,1.09
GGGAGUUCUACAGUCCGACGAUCCCGAGGGUUAAGCUGGUUUAGCAGGUCAUUGCUCAGCUUUGCUUGUCUCCCUGGGCAAGGGAAGGGGACCAGGAGAAAGGUGAUGAGGCCCCAGGGACUCCUGUCAUCUGUGGAAUUCUCGGGUGCCAA,0.583
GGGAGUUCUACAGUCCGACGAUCUCCUUGUGAAGAUGAUAUACUAUUUUUGUUAAGCGUGUCUGUAUUUAUGUGUGAGGAGCUGCUGGCUUGCUGUGCGCGUGCCCGUGGAGAGCUGGUGCCCAGAGACUGACUGGAAUUCUCGGGUGCCAA,1.37
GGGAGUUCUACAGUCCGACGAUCUUCUAGACUUUUUGUUUCUUGCAACAACAGUGCCCUCUGCUGCUAGAAACCUUUUUCUACUUACUAUCAUUUUUAUUGUGGCUUGAGCUCAGUCAAUCUGGUGCAGAUGAUGGAAUUCUCGGGUGCCAA,0.567
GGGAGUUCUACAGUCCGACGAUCCGAUGCGGGUCCUAGGAGAAAAAGUCCUACUUUUCUGGGUCCCCAGGUGCAGCACCUCCCGGAGACUGUUUCUCCCAUGGCCUCCUGAGUGAUGGGCCCUGCCUCCCUGUUGGAAUUCUCGGGUGCCAA,0.388
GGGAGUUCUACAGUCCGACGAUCGAAAAAAGUGUUGGCCUUUUUGCGGGACCAGAUUUUUAAGAUAAAAUAAAUAUUUUUACUUCUGUCAUUGUAUGUGAAAGAUGAAUGUGUUUCUGGCCGCGUGGCUGUUAUGGAAUUCUCGGGUGCCAA,0.463

# Series 4
# Target: Sal-like protein 4, full length isoform B (SALL4, Homo sapiens, UniProt Q9UJQ4-2, residues 1-616)
# Technique: universal PBM
# Form: double-stranded DNA, one strand shown
# Sample: in vitro
# Tested at: not given
# Setting: 8-mer, flanks averaged, mean of replicates
# Reading: higher = stronger binding
# Residues (chain): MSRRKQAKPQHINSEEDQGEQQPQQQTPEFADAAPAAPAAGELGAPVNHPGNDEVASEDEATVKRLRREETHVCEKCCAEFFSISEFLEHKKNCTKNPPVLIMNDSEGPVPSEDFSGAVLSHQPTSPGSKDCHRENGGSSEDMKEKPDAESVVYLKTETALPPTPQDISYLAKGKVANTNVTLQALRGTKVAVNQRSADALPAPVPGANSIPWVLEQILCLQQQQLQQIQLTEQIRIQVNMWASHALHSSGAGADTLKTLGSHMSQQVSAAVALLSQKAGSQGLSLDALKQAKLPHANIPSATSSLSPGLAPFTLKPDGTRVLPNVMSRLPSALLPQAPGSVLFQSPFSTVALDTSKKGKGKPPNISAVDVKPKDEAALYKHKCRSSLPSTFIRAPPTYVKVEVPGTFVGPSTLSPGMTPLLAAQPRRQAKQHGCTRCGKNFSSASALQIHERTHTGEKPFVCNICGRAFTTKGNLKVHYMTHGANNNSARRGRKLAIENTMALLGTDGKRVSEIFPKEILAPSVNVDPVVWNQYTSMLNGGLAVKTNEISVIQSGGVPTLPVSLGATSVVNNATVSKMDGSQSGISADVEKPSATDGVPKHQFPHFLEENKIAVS
Oligonucleotide,E-score
CAAGTAAA,0.226
CGAGGCCG,-0.312
GCACGCGC,-0.113
ACCAGAGG,-0.163
ACACCCAA,-0.0615
CTTGGCAC,-0.127
ATGGTCAA,0.125
CGCCTGTC,-0.275
AGCAGTAG,-0.142
CCGCTAAA,-0.103
AGGGAAGG,-0.13
CTTTTCTA,0.176
CCTATGAG,0.0913
GGATGCGA,-0.0371
AAAACAAG,0.256
CATGTACC,-0.189
GGACCTGA,-0.203
AACCATGC,0.00038
ACTTCAAC,0.0818
GACACGAC,0.0405
GCCCACTA,-0.0851
AAATTATT,0.465
CTGGGGGC,-0.364
CTATTTCA,0.181
AACGGGTG,-0.212

# Series 5
# Target: Myc proto-oncogene protein, bHLH-zipper, MAX partner unstated (MYC, Homo sapiens, UniProt P01106, residues 368-449)
# Sequence of UniProt P01106 (368-449, looked up): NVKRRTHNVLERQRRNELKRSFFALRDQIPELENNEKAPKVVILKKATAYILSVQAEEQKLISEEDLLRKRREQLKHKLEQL
# Technique: protein-binding microarray
# Form: double-stranded DNA, one strand shown
# Sample: in vitro
# Tested at: not given
# Setting: k-mer, scored over probes, only values ≥0.25
# Reading: higher = stronger binding
Oligonucleotide,E-score
ATGGCACG,0.377
GGTGTGCA,0.306
CACGTGAG,0.473
GCATATGC,0.343
CATGCTGA,0.4
CACCATGC,0.437
GGGCGGGA,0.301
ACCGCCCC,0.264
TGAGCACA,0.349
ACGTGGGG,0.388
ACGACGTG,0.379
CCACGACG,0.293
ACGACACG,0.335
